Measured values gathered from unrelated publications.
Lines come from different studies, so protocols differ. ± marks the error that the study gave.

CC(C)C(=O)OC[C@H]1O[C@@H](n2ccc(NO)nc2=O)[C@H](O)[C@@H]1O — freeze-thaw stability (rat fetus dialysate; 250 ng/mL, high concentration, three cycles, together with: NHC 1000 ng/mL): 99.8 ± 1.01%
CCc1ccc(CC/C=C/c2ccc3c(c2)C(=O)CC3)cc1 — creatinine (Sprague-Dawley rat, male, serum; oral, 120 mg/kg/day, 14 days): 20.7 µM
C[C@]1(CO)Cc2ncn(-c3ccc(C#N)c(Cl)c3)c2C(=O)O1 — AUC(0-tz) adjusted geometric mean (human, plasma; oral, 10 mg single dose, breakfast, high-fat, high-calorie, after): 2.38 µM·h
CC[C@H](C)[C@H](NC(=O)[C@H](CCCCN)NC(=O)[C@H](CCC(=O)O)NC(=O)[C@H](CCCCN)NC(=O)[C@H](CO)NC(=O)[C@H](CCCCN)NC(=O)[C@H](CCCNC(=N)N)NC(=O)[C@H](Cc1ccccc1)NC(=O)[C@H](Cc1ccccc1)NC(=O)[C@H](CC(=O)O)NC(=O)CNC(=O)[C@H](CC(C)C)NC(=O)[C@@H](N)CC(C)C)C(=O)NCC(=O)N[C@@H](CCCCN)C(=O)N[C@@H](CCC(=O)O)C(=O)N[C@@H](Cc1ccccc1)C(=O)N[C@@H](CCCCN)C(=O)N[C@@H](CCCNC(=N)N)C(=O)N[C@H](C(=O)N[C@H](C(=O)N[C@@H](CCC(N)=O)C(=O)N[C@@H](CCCNC(=N)N)C(=O)N[C@H](C(=O)N[C@@H](CCCCN)C(=O)N[C@@H](CC(=O)O)C(=O)N[C@@H](Cc1ccccc1)C(=O)N[C@@H](CC(C)C)C(=O)N[C@@H](CCCNC(=N)N)C(=O)N[C@@H](CC(N)=O)C(=O)N[C@@H](CC(C)C)C(=O)N[C@H](C(=O)N1CCC[C@H]1C(=O)N[C@@H](CCCNC(=N)N)C(=O)N[C@H](C(=O)N[C@@H](CCC(=O)O)C(=O)N[C@@H](CO)C(=O)O)[C@@H](C)O)C(C)C)[C@@H](C)CC)C(C)C)[C@@H](C)CC — remaining intact peptide (LC-MS; buffer with trypsin; 40 µM, 720 min, pH 7.5, 37 °C; baseline: 0 h): 0%
COc1cc2c(Oc3ccc4[nH]c(C)cc4c3F)ccnc2cc1OCC1(N)CC1 — grade 1 or 2 ALP elevation (paediatric recurrent refractory sarcoma; 8 mg): 0%
N=C(N)NCCC[C@@H](NC(=O)[C@@H](N)Cc1ccccc1)C(=O)N[C@@H](Cc1ccccc1)C(=O)N[C@@H](CCCCN)C(N)=O — median fraction excreted in urine (LC-MS; human; 25 mg, 11.83 h): 5.71%
CC[C@H](C)[C@@H]1NC(=O)[C@H](CCCNC(=N)N)NC(=O)C[C@@H](c2cccc3ccccc23)NC(=O)[C@@H]2CSSC[C@H](NC(=O)C[C@@H](c3cccc4ccccc34)NC(=O)[C@H](CCCNC(=N)N)NC(=O)[C@@H]3CCCN3C(=O)[C@@H]3CCCN3C1=O)C(=O)N[C@@H](Cc1ccccc1)C(=O)N1CCC[C@H]1C(=O)N[C@@H](CC(=O)O)C(=O)N[C@@H](CC(=O)O)C(=O)N[C@@H](Cc1ccccc1)C(=O)N2 — distribution half-life (two-compartment model; athymic nude mice (Foxn1); intravenous, 6 mg/kg): 19.8 min
CC(C)[C@@H]1NC(=O)CNC(=O)[C@H](CC(N)=O)NC(=O)[C@H](CCCNC(=N)N)NC(=O)[C@H](Cc2ccc(O)cc2)NC(=O)[C@H](C(C)C)NC(=O)[C@@H](NC(=O)[C@@H](NC(=O)[C@H](CC(N)=O)NC(=O)[C@H](Cc2c[nH]c3ccccc23)NC(=O)[C@H](C)NC(=O)[C@H](Cc2ccccc2)NC(=O)CN)C(C)C)CSSC[C@@H](C(=O)N[C@@H](Cc2cnc[nH]2)C(=O)N[C@@H](CCCNC(=N)N)C(=O)N[C@@H](CCCNC(=N)N)C(=O)N[C@@H](C)C(=O)N[C@@H](CC(N)=O)C(N)=O)NC(=O)[C@H](C(C)C)NC(=O)[C@H](CCCNC(=N)N)NC1=O — monocytes (ICR mice, blood; intraductal mammary, 5 mg/kg, day 5): 2.69 ± 0.15%
C[C@@H](NC(=O)N1C(=O)[C@H](Cc2ccnc(N)c2)[C@H]1C(=O)O)C1CCCCC1 — incidence of mild AEs (healthy adult Chinese volunteers; continuous intravenous infusion, 2.25 mg/kg/h, 5-day infusion, CTCAE 5.0 grading): 62.5%
Cc1ccc(F)c2cc(C(=O)N[C@@H]3CCC[C@H](N4CC[C@H](N(C)S(C)(=O)=O)C4)C3)[nH]c12 — clearance (CD1 mouse; intravenous, 1 mg/kg): 53.3 mL/min/kg
[O-][S+]1CCc2nc(N3CCC(c4ncc(Cl)cn4)CC3)nc(NC3(CO)CCC3)c21 (stereo not drawn) — adverse event incidence (item: Constipation; healthy male humans; 36 mg single dose): 16.7%
Clc1ccc(-c2ccccc2)cc1 — serum Creatinine (rat Sprague-Dawley female, serum; inhalation, 35 µg/rat, 24 h): 0.3 ± 0.1 mg/dL
CO[C@H]1C[C@@H]2CC[C@@H](C)[C@@](O)(O2)C(=O)C(=O)N2CCCC[C@H]2C(=O)O[C@H]([C@H](C)C[C@@H]2CC[C@@H](OC(=O)NCCOCCOCCOCCOCCOCCOCCOCCOCCC(=O)N3CCc4cc(Cn5nc(-c6ccc7oc(N)nc7c6)c6c(N)ncnc65)ccc4C3)[C@H](OC)C2)C[C@@H](O)[C@H](C)/C=C(\C)[C@@H](O)[C@@H](OC)C(=O)[C@H](C)C[C@H](C)/C=C/C=C/C=C/1C — AEs causing dose modification (phase 1 dose escalation; advanced solid tumour patients; intravenous, 8 mg weekly, any grade): 56.3%
Cn1ncc(-c2nc(N[C@H]3CC[C@H](N)CC3)ncc2Cl)c1CC1CC1 — AUC (HPLC-MS/MS; human patients; oral, 3 mg, day 5): 600 ng·h/mL
CCCCCOc1ccc(-c2ccc(-c3ccc(C(=O)N[C@H]4C[C@@H](O)[C@@H](OCC[N+](C)(C)C)NC(=O)[C@@H]5[C@@H](O)[C@@H](C)CN5C(=O)[C@H]([C@@H](C)O)NC(=O)[C@H]([C@H](O)[C@@H](O)c5ccc(O)cc5)NC(=O)[C@@H]5C[C@@H](O)CN5C(=O)[C@H]([C@@H](C)O)NC4=O)cc3)cc2)cc1 — albumin (adult ICU patients, mITT, serum; dose not given, day 30): 28.1 g/L
O=C(Nc1ccccc1)C1CCN(C(=O)Oc2cccnc2)CC1 — Gastrointestinal disorders adverse events (healthy women; oral, 20 mg, 7 days): 21.4%
O=C1Nc2cc3[nH]nc(-c4ccncc4)c3cc2CN1Cc1ccccc1 — patients with QTc prolongation (CTCAE v4.03; human, relapsed or refractory advanced solid tumours; intravenous, 6.4 mg/kg): 0%
COc1ccc(CCC2CCCC(CCc3ccc(OC)cc3)N2C[C@@H](O)CO)cc1.Cl (stereo in doubt) — Vmax change (rabbit Purkinje fibres; 0.1 µM, cycle length 1 s; baseline: baseline): 3.9 ± 4.7%
O=C(O)CNCP(=O)(O)O — dose fraction in permeate (ultrafiltration; cow milk whey; 20 nM nominal in whole milk): 56.6%
O=C(c1ccc(F)c(F)c1Nc1ccc(I)cc1F)N1CC(O)([C@@H]2CCCCN2)C1 — SAE leading dose modification (patients aged 6 to sample A years; oral, dose not given): 13%
C[C@@H]1NC(=O)[C@H](CCCCNC(=O)CO/N=C/C(=O)NCCCC[C@@H]2NC(=O)[C@@H](Cc3ccccc3)NC(=O)[C@H](CC(=O)O)NC(=O)CNC(=O)[C@H](CCCNC(=N)N)NC2=O)NC(=O)CNC(=O)[C@@H]2CCCN2C(=O)[C@H](CCCCNC(=O)CO/N=C/C(=O)NCCCC[C@@H]2NC(=O)[C@@H](Cc3ccccc3)NC(=O)[C@H](CC(=O)O)NC(=O)CNC(=O)[C@H](CCCNC(=N)N)NC2=O)NC(=O)[C@H](CCCCNC(=O)CCNC(=O)CCNC(=O)CCNC(=O)[C@H](CCCCN)NC(=O)[C@H](Cc2ccccc2)NC(=O)CNC(=O)CN2CCCNCCNCCCNCC2)NC(=O)[C@H](CCCCNC(=O)CO/N=C/C(=O)NCCCC[C@@H]2NC(=O)[C@@H](Cc3ccccc3)NC(=O)[C@H](CC(=O)O)NC(=O)CNC(=O)[C@H](CCCNC(=N)N)NC2=O)NC(=O)CNC(=O)[C@@H]2CCCN2C(=O)[C@H](CCCCNC(=O)CO/N=C/C(=O)NCCCC[C@@H]2NC(=O)[C@@H](Cc3ccccc3)NC(=O)[C@H](CC(=O)O)NC(=O)CNC(=O)[C@H](CCCNC(=N)N)NC2=O)NC1=O [copper-64 labelled] — tissue uptake (normal mice, kidney; intravenous, 0.74 MBq, 3 h post-injection): 47.7 ± 2.48 %ID/g
CC(C)(C(=O)NC1C2CC3CC1CC(C(N)=O)(C3)C2)N1CCN(c2ccc(C(F)(F)F)cn2)CC1 (stereo not drawn) — dose-normalised AUC(0-24) (item: metabolite; human, CSF; oral, 10 mg once daily, 5 days, median): 0.46 (ng·h/mL)/mg
O=S(=O)(Nc1ccccc1)c1ccc(NC(=S)Nc2ccccc2)cc1 — albumin level (female mouse, blood; oral, 5 mg/kg daily, 14 days): 3.1 g/dL
CN1CC[C@@H](c2c(O)cc(O)c3c(=O)cc(-c4ccc(C(F)(F)F)cc4Cl)oc23)[C@@H]1CO — patients with adverse event (item: Anemia; relapsed AML; oral, 100 mg, grade 3-4, intermittent dosing): 0%
NCCCC[C@@H]1NC(=O)[C@@H](Cc2c[nH]c3ccccc23)NC(=O)[C@H](c2ccccc2)NC(=O)[C@@H]2C[C@@H](OC(=O)NCCN)CN2C(=O)[C@H](Cc2ccccc2)NC(=O)[C@H](Cc2ccc(OCc3ccccc3)cc2)NC1=O — QTcI change from baseline (healthy volunteers; subcutaneous, 600 µg twice daily, day 5, 0.50 h): -1.9 ms
COc1ccnc(C(=O)N[C@H]2COC(=O)[C@H](Cc3ccccc3)[C@@H](OC(=O)C(C)C)[C@H](C)OC2=O)c1OCOC(=O)C(C)C — DT50 (aerobic dark soil incubation; clay loam soil; 20 °C, persistence endpoint): 0.8 days
Cc1cc(C)c(CNC(=O)c2cc(Cl)c3c(c2C)O[C@@](C)([C@H]2CC[C@H](N(C)C)CC2)O3)c(=O)[nH]1 — incidence of pleural effusion (relapsed/refractory NHL patients; dose not given, trial, safety set, all TEAEs grade 5): 0%

Excerpt of the above:
COc1cc2c(Oc3ccc4[nH]c(C)cc4c3F)ccnc2cc1OCC1(N)CC1 — grade 1 or 2 ALP elevation (paediatric recurrent refractory sarcoma; 8 mg): 0%
